Measurements gathered from unrelated publications.
Lines come from different studies, so protocols differ. Values joined by “and” are separate records of one study, mostly repeats; a detail may differ. ± gives the spread as reported.
Sequence of UniProt Q64663 (whole entry, unmodified, looked up): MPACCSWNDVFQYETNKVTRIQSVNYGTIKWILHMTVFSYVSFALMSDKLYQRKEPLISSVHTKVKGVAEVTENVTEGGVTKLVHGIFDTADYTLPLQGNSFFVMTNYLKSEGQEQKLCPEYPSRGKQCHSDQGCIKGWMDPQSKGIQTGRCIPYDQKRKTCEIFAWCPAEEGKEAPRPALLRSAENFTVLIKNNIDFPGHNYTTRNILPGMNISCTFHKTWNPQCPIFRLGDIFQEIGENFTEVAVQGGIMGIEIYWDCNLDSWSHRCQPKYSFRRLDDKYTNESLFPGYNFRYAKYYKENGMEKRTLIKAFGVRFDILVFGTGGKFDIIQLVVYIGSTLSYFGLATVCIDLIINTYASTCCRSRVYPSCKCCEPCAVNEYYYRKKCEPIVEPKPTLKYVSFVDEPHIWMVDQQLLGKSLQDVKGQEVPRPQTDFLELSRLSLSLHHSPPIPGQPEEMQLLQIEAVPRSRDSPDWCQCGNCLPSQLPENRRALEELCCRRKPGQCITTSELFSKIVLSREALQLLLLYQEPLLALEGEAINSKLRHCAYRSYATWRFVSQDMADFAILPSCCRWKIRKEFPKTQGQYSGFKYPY
Sequence of UniProt P51575 (whole entry, unmodified, looked up): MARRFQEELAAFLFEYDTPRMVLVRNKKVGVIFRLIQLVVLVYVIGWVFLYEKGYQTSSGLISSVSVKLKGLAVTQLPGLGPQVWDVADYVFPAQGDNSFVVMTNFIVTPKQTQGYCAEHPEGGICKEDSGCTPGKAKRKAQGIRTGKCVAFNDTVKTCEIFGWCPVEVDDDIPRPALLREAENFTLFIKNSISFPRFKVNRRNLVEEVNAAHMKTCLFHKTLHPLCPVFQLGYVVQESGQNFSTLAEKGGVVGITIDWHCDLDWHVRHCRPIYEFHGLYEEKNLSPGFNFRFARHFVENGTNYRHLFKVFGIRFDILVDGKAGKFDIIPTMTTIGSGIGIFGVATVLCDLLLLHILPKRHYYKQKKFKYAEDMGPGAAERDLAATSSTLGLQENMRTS
Sequence of UniProt O75762 (whole entry, looked up): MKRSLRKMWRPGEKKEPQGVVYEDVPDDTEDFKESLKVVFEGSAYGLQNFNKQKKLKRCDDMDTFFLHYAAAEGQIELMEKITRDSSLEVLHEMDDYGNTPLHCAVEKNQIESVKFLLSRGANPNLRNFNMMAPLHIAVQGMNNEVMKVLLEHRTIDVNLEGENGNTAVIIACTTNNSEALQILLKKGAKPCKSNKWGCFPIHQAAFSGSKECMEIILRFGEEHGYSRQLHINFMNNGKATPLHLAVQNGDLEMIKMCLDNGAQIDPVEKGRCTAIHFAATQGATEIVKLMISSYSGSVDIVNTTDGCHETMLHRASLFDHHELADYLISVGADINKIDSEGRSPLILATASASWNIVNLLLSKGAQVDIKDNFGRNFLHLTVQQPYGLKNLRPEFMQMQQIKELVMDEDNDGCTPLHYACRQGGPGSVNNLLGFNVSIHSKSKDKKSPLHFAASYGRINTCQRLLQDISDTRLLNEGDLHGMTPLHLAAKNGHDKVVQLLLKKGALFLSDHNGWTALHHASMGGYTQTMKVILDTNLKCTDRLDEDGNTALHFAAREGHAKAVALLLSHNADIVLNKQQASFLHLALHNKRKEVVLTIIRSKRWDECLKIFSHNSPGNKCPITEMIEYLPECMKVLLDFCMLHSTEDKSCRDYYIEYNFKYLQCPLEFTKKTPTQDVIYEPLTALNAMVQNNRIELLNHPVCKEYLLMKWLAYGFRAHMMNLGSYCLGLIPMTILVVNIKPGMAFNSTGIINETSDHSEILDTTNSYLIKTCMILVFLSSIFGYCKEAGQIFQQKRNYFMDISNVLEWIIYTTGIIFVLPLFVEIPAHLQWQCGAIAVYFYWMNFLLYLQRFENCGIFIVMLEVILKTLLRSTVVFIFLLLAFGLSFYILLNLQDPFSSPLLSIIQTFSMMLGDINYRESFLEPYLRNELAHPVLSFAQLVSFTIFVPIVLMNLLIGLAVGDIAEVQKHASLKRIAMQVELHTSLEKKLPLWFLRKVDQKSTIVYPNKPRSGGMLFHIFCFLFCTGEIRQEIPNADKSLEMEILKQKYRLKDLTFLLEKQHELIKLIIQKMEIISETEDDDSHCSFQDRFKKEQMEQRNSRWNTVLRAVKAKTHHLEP
Sequence of UniProt P22736 (whole entry, looked up): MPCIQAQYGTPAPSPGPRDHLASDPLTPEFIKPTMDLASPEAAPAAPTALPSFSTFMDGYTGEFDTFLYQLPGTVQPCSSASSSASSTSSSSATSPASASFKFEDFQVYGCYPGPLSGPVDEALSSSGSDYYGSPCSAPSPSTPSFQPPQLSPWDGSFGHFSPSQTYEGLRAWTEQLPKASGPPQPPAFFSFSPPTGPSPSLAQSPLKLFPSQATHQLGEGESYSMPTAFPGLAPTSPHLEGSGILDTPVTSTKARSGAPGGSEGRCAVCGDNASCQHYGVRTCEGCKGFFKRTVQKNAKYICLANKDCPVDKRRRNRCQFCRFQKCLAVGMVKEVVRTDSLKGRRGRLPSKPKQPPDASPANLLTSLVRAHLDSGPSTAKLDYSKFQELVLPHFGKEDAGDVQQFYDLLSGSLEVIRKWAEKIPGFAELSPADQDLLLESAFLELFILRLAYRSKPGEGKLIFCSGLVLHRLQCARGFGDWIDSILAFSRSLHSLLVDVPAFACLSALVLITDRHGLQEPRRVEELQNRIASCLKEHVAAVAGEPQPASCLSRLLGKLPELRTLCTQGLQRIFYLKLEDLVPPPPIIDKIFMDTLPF
Sequence of UniProt P0A8V2 (whole entry, looked up): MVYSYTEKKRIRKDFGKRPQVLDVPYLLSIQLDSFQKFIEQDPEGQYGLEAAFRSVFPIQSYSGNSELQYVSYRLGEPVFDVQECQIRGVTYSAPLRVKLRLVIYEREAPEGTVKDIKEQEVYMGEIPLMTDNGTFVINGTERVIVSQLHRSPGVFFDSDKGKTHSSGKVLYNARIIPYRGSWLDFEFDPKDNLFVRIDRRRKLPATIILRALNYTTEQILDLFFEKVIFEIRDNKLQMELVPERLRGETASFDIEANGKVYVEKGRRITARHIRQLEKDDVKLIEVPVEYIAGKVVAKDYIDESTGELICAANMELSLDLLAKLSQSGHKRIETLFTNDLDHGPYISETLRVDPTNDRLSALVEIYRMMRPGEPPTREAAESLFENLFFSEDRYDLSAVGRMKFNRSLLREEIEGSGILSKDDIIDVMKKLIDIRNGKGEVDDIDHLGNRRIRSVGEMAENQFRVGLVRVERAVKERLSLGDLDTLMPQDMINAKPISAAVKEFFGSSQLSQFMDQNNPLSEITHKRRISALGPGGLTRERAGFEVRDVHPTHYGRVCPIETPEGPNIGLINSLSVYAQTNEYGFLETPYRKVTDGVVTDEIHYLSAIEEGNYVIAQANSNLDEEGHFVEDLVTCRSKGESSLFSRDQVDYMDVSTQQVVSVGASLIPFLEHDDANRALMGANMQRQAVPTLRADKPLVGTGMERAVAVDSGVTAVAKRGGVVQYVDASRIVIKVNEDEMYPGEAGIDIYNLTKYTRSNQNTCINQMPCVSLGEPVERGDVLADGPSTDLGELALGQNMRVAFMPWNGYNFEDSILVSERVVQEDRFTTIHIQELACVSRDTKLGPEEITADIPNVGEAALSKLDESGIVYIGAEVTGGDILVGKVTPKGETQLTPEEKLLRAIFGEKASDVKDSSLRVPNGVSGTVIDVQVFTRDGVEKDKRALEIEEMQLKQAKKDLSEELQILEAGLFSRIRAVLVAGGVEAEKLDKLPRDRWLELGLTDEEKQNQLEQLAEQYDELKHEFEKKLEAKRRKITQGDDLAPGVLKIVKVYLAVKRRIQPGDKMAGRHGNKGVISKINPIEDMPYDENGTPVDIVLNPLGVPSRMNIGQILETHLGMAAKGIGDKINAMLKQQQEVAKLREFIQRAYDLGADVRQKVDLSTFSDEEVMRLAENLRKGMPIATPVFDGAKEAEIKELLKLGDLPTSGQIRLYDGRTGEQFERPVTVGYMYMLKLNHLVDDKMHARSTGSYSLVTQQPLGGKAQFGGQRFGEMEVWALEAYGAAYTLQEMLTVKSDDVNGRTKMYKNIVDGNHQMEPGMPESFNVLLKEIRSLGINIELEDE
Sequence of UniProt Q07817 (whole entry, looked up): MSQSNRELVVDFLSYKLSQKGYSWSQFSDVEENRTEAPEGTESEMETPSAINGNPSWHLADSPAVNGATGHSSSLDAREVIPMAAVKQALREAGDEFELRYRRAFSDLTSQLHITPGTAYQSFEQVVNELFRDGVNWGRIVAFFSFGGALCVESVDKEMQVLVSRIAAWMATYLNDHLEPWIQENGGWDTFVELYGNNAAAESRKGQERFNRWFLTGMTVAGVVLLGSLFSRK
Sequence of UniProt Q07011 (whole entry, looked up): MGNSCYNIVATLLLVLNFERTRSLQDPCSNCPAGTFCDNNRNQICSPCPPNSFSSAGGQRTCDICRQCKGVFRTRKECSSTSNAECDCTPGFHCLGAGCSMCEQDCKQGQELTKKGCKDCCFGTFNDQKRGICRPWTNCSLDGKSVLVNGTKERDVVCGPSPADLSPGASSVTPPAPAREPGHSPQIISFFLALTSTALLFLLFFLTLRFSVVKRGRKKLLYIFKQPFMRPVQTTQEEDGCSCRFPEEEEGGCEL
Sequence of UniProt P41595 (whole entry, looked up): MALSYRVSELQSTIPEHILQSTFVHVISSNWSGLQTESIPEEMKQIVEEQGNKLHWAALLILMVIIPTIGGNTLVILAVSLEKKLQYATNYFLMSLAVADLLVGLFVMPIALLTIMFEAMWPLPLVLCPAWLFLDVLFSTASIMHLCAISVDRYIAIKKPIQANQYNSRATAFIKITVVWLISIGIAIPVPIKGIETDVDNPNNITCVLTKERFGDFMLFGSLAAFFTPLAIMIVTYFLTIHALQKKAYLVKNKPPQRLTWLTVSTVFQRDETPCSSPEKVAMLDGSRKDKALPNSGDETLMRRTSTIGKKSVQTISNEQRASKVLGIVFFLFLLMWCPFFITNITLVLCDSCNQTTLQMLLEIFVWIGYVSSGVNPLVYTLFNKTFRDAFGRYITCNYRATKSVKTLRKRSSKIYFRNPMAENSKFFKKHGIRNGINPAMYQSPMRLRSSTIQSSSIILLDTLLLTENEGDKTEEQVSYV

CC1(C)CCC(CN2CCN(c3ccc(C(=O)NS(=O)(=O)c4ccc(NCC5CCOCC5)c([N+](=O)[O-])c4)c(Oc4cnc5[nH]ccc5c4)c3)CC2)=C(c2ccc(Cl)cc2)C1
Hill slope (BCL2L1 (Homo sapiens, UniProt Q07817); binding): -3.16

N#C[C@@]12C[C@@H]1[C@@H](n1cnc3c(N[C@@H](C4CCC4)C4CC4)nc(I)nc31)[C@H](O)[C@@H]2O
affinity gain (HTR2B (Homo sapiens, UniProt P41595); radioligand binding; added: [3H]LSD; baseline: 4′-cyano over 4′-CH2OH analogue): 13 fold

Nc1ncnc2c1ncn2[C@@H]1O[C@H](COP(=O)(O)OP(=O)(O)OP(=O)(O)O)[C@@H](O)[C@H]1O
normalized current (P2X purinoceptor 7 (P2rx7, Rattus norvegicus, UniProt Q64663, I214A/R125A); ion current, agonist, two-electrode voltage clamp; Xenopus laevis oocytes; 33 µM; baseline: highest concentration response): 0.233 and 0.219 and 0.192

CC[C@@H](C)[C@@H](NC(=O)[C@@H](Cc1ccc(O)cc1)NC(=O)[C@H]1CCCN1C(=O)[C@@H](CCCNC(=N)N)NC(=O)[C@H](N)Cc1c[nH]cn1)C(=O)N[C@H](C)C(=O)N[C@H](Cc1c[nH]cn1)C(=O)N[C@H](CCCNC(=N)N)C(=O)N[C@@H](C(=O)N[C@H](Cc1ccc(O)cc1)C(=O)N[C@H](CO)C(=O)N[C@H](Cc1ccccc1)C(N)=O)C(C)C
surface TFRC expression (Transferrin receptor protein 1 (Tfrc, Mus musculus, UniProt Q62351); flow cytometry; RAW264.7; 2 h, pH 6, replicate 2, unit not given; baseline: 0 h): 1.02

COC(=O)c1cn(C)c2ccc(-c3cccnc3)cc12
activation (Nuclear receptor subfamily 4 group A member 1 (NR4A1, Homo sapiens, UniProt P22736); reporter gene, NBRE reporter full-length; 10 µM; baseline: vehicle): 0.64 fold

NCCS(=O)(=O)O
normalised MST signal (SLC6A6 (Homo sapiens, UniProt P31641, S402A); binding, microscale thermophoresis; 30.5 nM, room temperature, added: 50 nM labelled protein; higher = more binding): -0.00154

CC1=C(/C=C/C(C)=C/C=C/C(C)=C/C=O)C(C)(C)CCC1
relative koff (Rhodopsin (RHO, Bos taurus, UniProt P02699, G270L); retinal release, Trp FRET; lipid bicelles; 28 °C, G270L mutant; baseline: wild-type rhodopsin): 1.83 ± 0.14

[Ca]
potentiation (TRPA1 (Homo sapiens, UniProt O75762); ion current, two-electrode voltage clamp; Xenopus oocytes; concentration not given, -80 mV, added: extracellular Ca2+; baseline: current before Ca2+ addition): 22.9 fold change and 2.57 fold change and 7.02 fold change and 0.645 fold change and 27.5 fold change

CCCC[C@@H]1NC(=O)[C@H](Cc2ccc(O)cc2)NC(=O)[C@@H]2CCCN2C(=O)[C@H](CC(N)=O)NC(=O)[C@H](C)NC(=O)[C@H](Cc2ccccc2)NC(=O)[C@@H]2CSCCC(=O)N3CN(CN(C3)C(=O)CCSC[C@H](NC(C)=O)C(=O)N[C@@H](CC(C)(C)C)C(=O)N3CCC[C@H]3C(=O)N[C@@H](CCC(=O)O)C(=O)N[C@H](CCCCNC(=O)CCc3cn(CCOCCOCCOCCN(CCOCCOCCOCCC(=O)N[C@H]4CSCCC(=O)N5CN6CN(C5)C(=O)CCSC[C@H](NC(=O)[C@@H](CC(=O)O)NC(=O)[C@H](Cc5cccc7ccccc57)NC(=O)[C@@H]5CCCN5C4=O)C(=O)N[C@@H](CCSC)C(=O)N[C@@H](CCCCNC(=N)N)C(=O)N[C@@H](CC(=O)O)C(=O)N[C@@H](Cc4c[nH]c5ccccc45)C(=O)N[C@@H](CO)C(=O)N[C@@H]([C@@H](C)O)C(=O)N4CCC[C@H]4C(=O)N4C[C@H](O)C[C@H]4C(=O)N[C@@H](Cc4c[nH]c5ccccc45)C(=O)N[C@H](C(N)=O)CSCCC6=O)CCOCCOCCOCCn4cc(CCC(=O)NCCCC[C@H]5NC(=O)[C@H](CCC(=O)O)NC(=O)[C@@H]6CCCN6C(=O)[C@H](CC(C)(C)C)NC(=O)[C@@H](NC(C)=O)CSCCC(=O)N6CN7CN(C6)C(=O)CCSC[C@H](NC(=O)[C@H](Cc6ccc(O)cc6)NC(=O)[C@@H]6CCCN6C5=O)C(=O)N[C@@H](Cc5ccccc5)C(=O)N[C@@H](C)C(=O)N[C@@H](CC(N)=O)C(=O)N5CCC[C@H]5C(=O)N[C@@H](Cc5ccc(O)cc5)C(=O)N[C@@H](CCCC)C(=O)N[C@H](C(N)=O)CSCCC7=O)nn4)nn3)C(=O)N3CCC[C@H]3C(=O)N[C@@H](Cc3ccc(O)cc3)C(=O)N2)C(=O)CCSC[C@@H](C(N)=O)NC1=O
Emax (Tumor necrosis factor receptor superfamily member 9/Nectin-4 (Homo sapiens, UniProt Q07011+Q96NY8); reporter gene, agonist; HT-1376 coculture with reporter cells; baseline: background): 25 fold

C=CC(=O)N1CCC(COCC(=O)N2CCN(c3nc(-c4cnc(N)nc4C(F)F)nc(N4CCOC[C@@H]4C)n3)CC2)CC1
remaining binding (MINK1 (Homo sapiens, UniProt Q8N4C8); KINOMEscan; 1 µM): 100%

Nc1ncnc2c1ncn2[C@@H]1O[C@H](COP(=O)(O)OP(=O)(O)OP(=O)(O)O)[C@@H](O)[C@H]1O
nucleotide addition rate (DNA-directed RNA polymerase subunit beta' / DNA-directed RNA polymerase subunit beta (rpoC/rpoB, Escherichia coli, UniProt P0A8T7+P0A8V2); RNA extension, rapid quench-flow; Escherichia coli, elongation complex, 6-MI template; 200 µM, 25 °C, slow complex fraction): 2.6 ± 1.2 s⁻¹

Nc1ncnc2c1ncn2[C@@H]1O[C@H](COP(=O)(O)CP(=O)(O)OP(=O)(O)O)[C@@H](O)[C@H]1O
specific binding (P2X purinoceptor 1 (P2RX1, Homo sapiens, UniProt P51575, D170A); saturation binding; HEK293; 103 nM): 348 CCPM and 408 CCPM

For quick reference, copied from above:
Nc1ncnc2c1ncn2[C@@H]1O[C@H](COP(=O)(O)CP(=O)(O)OP(=O)(O)O)[C@@H](O)[C@H]1O
specific binding (P2X purinoceptor 1 (P2RX1, Homo sapiens, UniProt P51575, D170A); saturation binding; HEK293; 103 nM): 348 CCPM and 408 CCPM

CC[C@@H](C)[C@@H](NC(=O)[C@@H](Cc1ccc(O)cc1)NC(=O)[C@H]1CCCN1C(=O)[C@@H](CCCNC(=N)N)NC(=O)[C@H](N)Cc1c[nH]cn1)C(=O)N[C@H](C)C(=O)N[C@H](Cc1c[nH]cn1)C(=O)N[C@H](CCCNC(=N)N)C(=O)N[C@@H](C(=O)N[C@H](Cc1ccc(O)cc1)C(=O)N[C@H](CO)C(=O)N[C@H](Cc1ccccc1)C(N)=O)C(C)C
surface TFRC expression (Transferrin receptor protein 1 (Tfrc, Mus musculus, UniProt Q62351); flow cytometry; RAW264.7; 2 h, pH 6, replicate 2, unit not given; baseline: 0 h): 1.02
